Measurements from different studies.
Each line is one published result; not all experiments were run side by side. Several values in a cell are separate wells, animals, samples, runs or records. ± marks the error that the study gave.
MAPK8: Mitogen-activated protein kinase 8 (MAPK8, Homo sapiens, UniProt P45983)
Chain of UniProt P45983 (whole entry, looked up): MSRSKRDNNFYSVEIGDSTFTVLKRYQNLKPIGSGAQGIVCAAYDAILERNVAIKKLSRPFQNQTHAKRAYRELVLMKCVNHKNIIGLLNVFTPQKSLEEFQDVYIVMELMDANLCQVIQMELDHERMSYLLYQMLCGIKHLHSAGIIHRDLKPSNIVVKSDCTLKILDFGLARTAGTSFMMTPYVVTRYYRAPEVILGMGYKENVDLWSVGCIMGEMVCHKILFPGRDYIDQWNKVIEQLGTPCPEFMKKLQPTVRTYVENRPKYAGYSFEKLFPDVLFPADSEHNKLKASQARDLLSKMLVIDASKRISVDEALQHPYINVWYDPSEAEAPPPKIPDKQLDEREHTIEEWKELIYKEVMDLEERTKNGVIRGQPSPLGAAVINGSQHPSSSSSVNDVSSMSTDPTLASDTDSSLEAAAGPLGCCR
TDP1: Tyrosyl-DNA phosphodiesterase 1 (TDP1, Homo sapiens, UniProt Q9NUW8)
Chain of UniProt Q9NUW8 (whole entry, looked up): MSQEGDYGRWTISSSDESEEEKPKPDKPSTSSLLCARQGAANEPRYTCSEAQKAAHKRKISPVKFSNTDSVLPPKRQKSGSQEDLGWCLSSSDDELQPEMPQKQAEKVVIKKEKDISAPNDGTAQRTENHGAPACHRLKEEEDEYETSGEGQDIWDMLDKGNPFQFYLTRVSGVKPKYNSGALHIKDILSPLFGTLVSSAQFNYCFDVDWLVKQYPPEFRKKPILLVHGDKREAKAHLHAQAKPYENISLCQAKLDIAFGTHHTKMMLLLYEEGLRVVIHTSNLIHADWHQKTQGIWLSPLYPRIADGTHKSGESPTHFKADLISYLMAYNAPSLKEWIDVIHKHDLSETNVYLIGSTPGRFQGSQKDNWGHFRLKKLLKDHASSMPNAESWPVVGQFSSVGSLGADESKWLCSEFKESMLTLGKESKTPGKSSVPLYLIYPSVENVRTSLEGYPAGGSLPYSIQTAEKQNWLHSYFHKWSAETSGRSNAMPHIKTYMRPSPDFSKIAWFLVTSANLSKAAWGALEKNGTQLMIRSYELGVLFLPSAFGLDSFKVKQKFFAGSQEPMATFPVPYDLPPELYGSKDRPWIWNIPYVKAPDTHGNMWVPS
Gria1: Glutamate receptor 1 (Gria1, Rattus norvegicus, UniProt P19490)
Chain of UniProt P19490 (whole entry, looked up): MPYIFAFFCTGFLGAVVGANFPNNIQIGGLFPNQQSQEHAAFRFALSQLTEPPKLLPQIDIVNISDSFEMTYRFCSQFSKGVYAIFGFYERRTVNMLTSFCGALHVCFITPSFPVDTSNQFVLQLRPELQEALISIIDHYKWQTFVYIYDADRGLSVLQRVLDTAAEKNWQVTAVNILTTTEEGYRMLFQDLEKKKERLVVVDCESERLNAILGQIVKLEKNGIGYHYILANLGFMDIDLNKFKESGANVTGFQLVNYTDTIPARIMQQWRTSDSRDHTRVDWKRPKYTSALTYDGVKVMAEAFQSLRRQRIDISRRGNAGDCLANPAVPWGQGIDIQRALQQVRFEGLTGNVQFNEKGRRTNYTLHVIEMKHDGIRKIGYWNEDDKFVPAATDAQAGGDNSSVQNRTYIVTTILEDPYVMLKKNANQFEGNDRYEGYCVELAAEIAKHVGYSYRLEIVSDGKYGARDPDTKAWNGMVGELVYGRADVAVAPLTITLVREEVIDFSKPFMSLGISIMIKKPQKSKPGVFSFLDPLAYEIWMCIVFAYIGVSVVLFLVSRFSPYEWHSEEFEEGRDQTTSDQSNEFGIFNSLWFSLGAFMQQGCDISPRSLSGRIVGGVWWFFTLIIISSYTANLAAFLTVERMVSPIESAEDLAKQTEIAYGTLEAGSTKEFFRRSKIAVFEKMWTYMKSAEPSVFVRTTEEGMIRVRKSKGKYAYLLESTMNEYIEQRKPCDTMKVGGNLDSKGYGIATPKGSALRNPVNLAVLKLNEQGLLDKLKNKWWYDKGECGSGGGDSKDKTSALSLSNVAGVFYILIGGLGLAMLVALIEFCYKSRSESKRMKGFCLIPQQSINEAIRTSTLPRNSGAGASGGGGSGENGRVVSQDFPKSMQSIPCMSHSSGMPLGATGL
TARDBP aggregated: TAR DNA-binding protein 43, aggregated (TARDBP, Homo sapiens, UniProt Q13148)
Chain of UniProt Q13148 (whole entry, looked up): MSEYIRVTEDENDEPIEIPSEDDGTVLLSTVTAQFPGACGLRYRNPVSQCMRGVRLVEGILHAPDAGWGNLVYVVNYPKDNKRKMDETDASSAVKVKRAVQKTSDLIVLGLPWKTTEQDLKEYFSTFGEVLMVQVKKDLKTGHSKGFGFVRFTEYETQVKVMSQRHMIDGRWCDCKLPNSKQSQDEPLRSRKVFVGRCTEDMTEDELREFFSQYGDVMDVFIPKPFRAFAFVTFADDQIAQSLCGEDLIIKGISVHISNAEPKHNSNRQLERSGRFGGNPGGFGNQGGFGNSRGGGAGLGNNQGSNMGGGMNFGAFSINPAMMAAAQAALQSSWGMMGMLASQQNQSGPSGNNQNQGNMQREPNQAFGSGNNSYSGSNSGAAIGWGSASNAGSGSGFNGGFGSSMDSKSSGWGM
BRD4 BD1: Bromodomain-containing protein 4, BD1 (BRD4, Homo sapiens, UniProt O60885)
CASP6: Caspase-6 (CASP6, Homo sapiens, UniProt P55212)
Chain of UniProt P55212 (whole entry, looked up): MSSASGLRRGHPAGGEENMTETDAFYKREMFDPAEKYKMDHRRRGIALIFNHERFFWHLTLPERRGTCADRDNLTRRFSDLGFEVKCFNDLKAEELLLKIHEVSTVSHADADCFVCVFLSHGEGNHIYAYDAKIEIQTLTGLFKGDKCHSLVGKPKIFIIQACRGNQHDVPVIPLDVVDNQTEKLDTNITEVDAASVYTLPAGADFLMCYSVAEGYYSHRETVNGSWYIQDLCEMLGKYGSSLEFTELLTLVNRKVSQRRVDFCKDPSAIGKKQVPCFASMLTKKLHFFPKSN
T1: dsDNA, duplex; chain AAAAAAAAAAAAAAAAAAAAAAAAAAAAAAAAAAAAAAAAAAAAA; chain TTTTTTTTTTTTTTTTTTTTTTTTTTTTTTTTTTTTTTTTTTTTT
Chain of UniProt P08191 (whole entry, unmodified, looked up): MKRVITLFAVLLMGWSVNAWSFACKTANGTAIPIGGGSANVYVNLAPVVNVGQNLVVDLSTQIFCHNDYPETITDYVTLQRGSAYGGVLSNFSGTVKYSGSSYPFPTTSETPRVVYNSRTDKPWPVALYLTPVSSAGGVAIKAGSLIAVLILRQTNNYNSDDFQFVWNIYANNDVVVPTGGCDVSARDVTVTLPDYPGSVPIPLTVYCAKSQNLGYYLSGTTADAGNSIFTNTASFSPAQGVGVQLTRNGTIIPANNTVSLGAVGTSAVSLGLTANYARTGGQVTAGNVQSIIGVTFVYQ
Chain of UniProt Q03468 (whole entry, looked up): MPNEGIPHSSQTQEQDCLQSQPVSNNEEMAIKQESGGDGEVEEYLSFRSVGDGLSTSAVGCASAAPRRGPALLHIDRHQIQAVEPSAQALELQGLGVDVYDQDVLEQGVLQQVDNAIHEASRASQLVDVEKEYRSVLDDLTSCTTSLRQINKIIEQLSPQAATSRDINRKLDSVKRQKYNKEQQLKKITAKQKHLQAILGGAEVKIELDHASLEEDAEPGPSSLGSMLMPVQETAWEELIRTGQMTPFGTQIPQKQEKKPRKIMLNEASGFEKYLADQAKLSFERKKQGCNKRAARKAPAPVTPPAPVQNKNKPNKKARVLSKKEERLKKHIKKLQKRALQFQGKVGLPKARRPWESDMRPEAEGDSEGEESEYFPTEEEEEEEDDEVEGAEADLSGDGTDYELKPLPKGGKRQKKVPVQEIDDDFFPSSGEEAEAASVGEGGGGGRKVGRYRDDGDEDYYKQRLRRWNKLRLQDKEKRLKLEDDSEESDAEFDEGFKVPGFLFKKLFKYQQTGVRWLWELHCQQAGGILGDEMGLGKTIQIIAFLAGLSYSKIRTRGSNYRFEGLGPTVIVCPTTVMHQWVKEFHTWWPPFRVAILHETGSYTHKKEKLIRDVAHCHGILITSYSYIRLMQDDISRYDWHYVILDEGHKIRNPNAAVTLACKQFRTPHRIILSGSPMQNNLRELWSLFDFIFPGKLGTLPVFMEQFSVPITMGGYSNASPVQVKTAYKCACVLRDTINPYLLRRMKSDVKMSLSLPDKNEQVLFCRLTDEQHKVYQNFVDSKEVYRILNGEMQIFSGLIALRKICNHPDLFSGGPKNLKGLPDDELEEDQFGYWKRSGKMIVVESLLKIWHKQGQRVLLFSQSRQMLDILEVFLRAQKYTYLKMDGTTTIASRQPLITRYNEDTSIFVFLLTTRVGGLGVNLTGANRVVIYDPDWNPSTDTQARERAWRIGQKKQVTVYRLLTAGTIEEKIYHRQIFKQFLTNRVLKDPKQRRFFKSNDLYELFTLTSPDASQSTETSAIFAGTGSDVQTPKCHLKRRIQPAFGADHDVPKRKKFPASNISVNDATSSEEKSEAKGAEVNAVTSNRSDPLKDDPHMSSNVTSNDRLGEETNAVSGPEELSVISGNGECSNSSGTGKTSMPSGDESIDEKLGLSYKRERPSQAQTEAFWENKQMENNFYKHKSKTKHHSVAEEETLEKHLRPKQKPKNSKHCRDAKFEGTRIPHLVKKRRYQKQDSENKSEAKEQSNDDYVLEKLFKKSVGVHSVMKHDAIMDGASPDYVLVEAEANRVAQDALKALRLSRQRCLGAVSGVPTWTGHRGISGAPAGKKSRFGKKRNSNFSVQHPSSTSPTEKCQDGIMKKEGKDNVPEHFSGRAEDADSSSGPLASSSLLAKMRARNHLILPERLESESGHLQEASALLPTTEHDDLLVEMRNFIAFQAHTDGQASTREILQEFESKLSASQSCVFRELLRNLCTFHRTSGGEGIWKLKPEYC
Chain of UniProt P00698 (whole entry, looked up): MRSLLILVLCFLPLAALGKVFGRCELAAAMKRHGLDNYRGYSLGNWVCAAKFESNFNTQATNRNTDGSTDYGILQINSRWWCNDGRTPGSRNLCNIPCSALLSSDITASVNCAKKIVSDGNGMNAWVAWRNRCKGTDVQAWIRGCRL
Chain of UniProt O00170 (whole entry, looked up): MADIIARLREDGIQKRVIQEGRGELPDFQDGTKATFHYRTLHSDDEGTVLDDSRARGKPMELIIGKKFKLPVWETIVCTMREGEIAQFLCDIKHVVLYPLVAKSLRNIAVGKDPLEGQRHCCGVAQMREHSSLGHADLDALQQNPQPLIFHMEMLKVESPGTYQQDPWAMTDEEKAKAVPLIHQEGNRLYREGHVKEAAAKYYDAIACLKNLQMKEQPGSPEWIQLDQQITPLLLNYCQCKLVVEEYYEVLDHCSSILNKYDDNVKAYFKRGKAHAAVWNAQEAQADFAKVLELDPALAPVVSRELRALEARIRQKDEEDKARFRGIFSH

SMILES | tested on | test | test system | setting | scale | measurement | value
COC(=O)[C@]1(C)C=C(C(=O)Nc2cccc(C(=O)Nc3ccc(Nc4nccc(-c5cccnc5)n4)c(C)c3)c2)C(=O)CC1 | MAPK8 | SPR two-step binding model |  | reversible bond formation |  | ΔΔG bond formation contribution | -2.64 kcal/mol
CCCCCC(O)/C=C/C=O (stereo not shown) | AH receptor-interacting protein (Homo sapiens, UniProt O00170) | competitive isoTOP-ABPP | Ramos soluble proteome | 100 µM, together with: iodoacetamide probe | baseline: DMSO over compound-treated, higher = stronger cysteine blockade | isoTOP-ABPP competition ratio | 1.5
COc1ccc(C(=O)CC2(O)C(=O)Nc3c(Br)cc(C)cc32)cc1 (stereo not shown) | ppa (Escherichia coli, UniProt P0A7A9) | enzyme activity |  | counter-screen |  | Hill slope | -0.6
Cc1sc2ccc(C=NOCc3ccc4nc(-c5ccccc5)c(Nc5ccc(C(=O)O)cc5)n4c3)cc2[n+]1C.[I-] (mixture of isomers) | TDP1 | enzyme activity, inhibitor |  | 100 µM, unpurified compound |  | inhibition | 44.5%
CCCc1n(Cc2ccc(Br)cc2)c2c([n+]1Cc1ccc(Br)cc1)CCCC2 | T1, dsDNA, duplex | gel retardation |  | 60-1500 µM, 2 h, K+ 100 mM |  | binding | binds
COC1CN([C@H]2CC[C@H]([C@@]3(C)Oc4c(Cl)cc(C(=O)NCc5c(SC)cc(C)[nH]c5=O)c(C)c4O3)CC2)C1 |  | RNA-seq, refers to: KHDRBS3 mouse homolog | mouse, HT-1376 xenograft, whole blood | dose not given | baseline: vehicle | log2 fold change | 3.6
COc1ccc(C(=O)CC2(O)C(=O)Nc3cc(Cl)cc(Cl)c32)cc1OC (stereo not shown) | Uncharacterized protein (Trypanosoma brucei brucei, UniProt Q386Q8) | inhibitor, coupled colorimetric | Trypanosoma brucei |  |  | Hill slope | -9.09
COC(=O)Cc1cc2c(cc1C(=O)c1cccc(I)c1)OCO2 | Gria1 | glutamate-evoked current, whole-cell patch clamp | HEK-293T | concentration not given, weighted tau, 1 ms pulse, together with: glutamate |  | deactivation time constant | 2.5 ± 0.1 ms
O=C1c2sc(-c3ccc(N4CCC(CO)CC4)nc3F)nc2CCN1c1cccnc1 | TARDBP aggregated | radioligand binding | human, FTLD-TDP type C sarkosyl-insoluble extract | 9.68 nM |  | specific binding | 0.083 nM and 0.102 nM and 0.164 nM
O=C1CCCN1c1cccc(NS(=O)(=O)c2cc(Br)ccc2Br)c1 | BRD4 BD1 | thermal stability, DSF |  |  |  | ΔTm | -0.91 °C
CCCCCCCO[C@H]1O[C@H](CO)[C@@H](O)[C@H](O)[C@@H]1O | Type 1 fimbrin D-mannose specific adhesin, lectin domain (fimH, Escherichia coli K-12, UniProt P08191) | binding, isothermal titration calorimetry |  | 37 °C, individual direct titrations |  | -TΔS | 17.4 kJ/mol and 16.1 kJ/mol
CC[C@@H](C)[C@H](NC(=O)[C@H](Cc1ccc(O)cc1)NC(=O)[C@@H]1C[C@@H](O)CN1C(=O)[C@H](C)NC(=O)[C@H](CC(C)C)NC(=O)[C@H](C)NC(=O)[C@H](CCC(=O)O)NC(=O)[C@H](CC(=O)O)NC(=O)c1ccc2c(c1)C1(OC2=O)c2ccc(O)cc2Oc2cc(O)ccc21)C(=O)N1CCC[C@H]1C(=O)N[C@@H](CC(=O)O)C(=O)O | elongin C (Spodoptera frugiperda, UniProt A0A2H1WSX9) | surface plasmon resonance |  | binary complex |  | koff | 0.0034 s⁻¹
CN(C)S(=O)(=O)c1ccc(S(=O)(=O)N2CCC(n3c(=O)[nH]c4ccccc43)CC2)cc1 | DNA excision repair protein ERCC-6 (ERCC6, Homo sapiens, UniProt Q03468) |  |  | concentration not given |  | ATPase activity | 96.8%
OCC(O)CO | Lysozyme C (LYZ, Gallus gallus, UniProt P00698) | static light scattering |  | pH 7, 25 °C, together with: NaCl 50 mM |  | particle diameter | 6.1 nm
Cn1c2ccccc2n2c(C=NOCc3ccc(-c4nc5cc(-c6ccccc6)ccn5c4Nc4ccc(C(=O)O)cc4)cc3)c(-c3ccccc3)nc12 | TDP1 | enzyme activity, inhibitor |  | 100 µM |  | inhibition | 77%
C#CCOC(=O)[C@]1(C)C=C(C(=O)OC(C)(C)C)C(=O)CC1 | MAPK8 | enzyme activity, D-SENSOR |  | 0.5487 µM, single replicate |  | normalized kinase activity | 1.05 and 0.967 and 1.06
CCCCOc1ccc(C(=O)OCCN2CC=CCC2)cc1 | CHRM3 (Homo sapiens, UniProt P20309) |  | membranes | 100 µM, 15 h, no carbachol | baseline: control | basal binding | 0.93 ± 0.03 fold
COC(=O)Cc1cc2c(cc1C(=O)c1ccccc1Cl)OCO2 | Gria1 | glutamate-evoked current, whole-cell patch clamp | HEK-293T | concentration not given, pH 7.4, holding potential -60 mV, together with: 10 mM glutamate |  | current amplitude | 364 ± 26 pA
Cc1cc(C)cc(COc2cc3c(cc2OCc2cc(C)cc(C)c2)C2CC(O)(Cc4cn(CCOCCOCCNC(=O)CCCCC5SCC6NC(=O)NC65)nn4)CC(C)N2CC3)c1 (stereo not shown) | Membrane-associated progesterone receptor component 2 (Homo sapiens, UniProt O15173) | biotinylated probe pull-down, refers to: PGRMC2 |  | 10 µM probe | baseline: heavy over light | SILAC ratio | 1.75

SMILES | tested on | test | test system | setting | scale | measurement | value
O=C(O)c1ccc(Nc2c(-c3ccccc3)nc3ccc(CON=Cc4ccc(-n5cncn5)c(F)c4)cn23)cc1 | TDP1 | enzyme activity, inhibitor |  | 100 µM, unpurified compound |  | inhibition | -6.2%
O=C1c2sc(-c3ccc(N4CCC(F)C4)nc3F)nc2CCN1c1cccnc1 (stereo not shown) | TARDBP aggregated | saturation autoradiography | human, FTLD-TDP type A brain sections | 12.5 nM |  | specific binding | 72.8 nM
Cc1ccc(S(=O)(=O)N2CC(NC(=O)c3cccc(C#N)c3)C2=O)cc1 (stereo not shown) | glpG (Escherichia coli, UniProt P09391) | enzyme activity, inhibitor, gel-based chimeric protein substrate |  |  |  | IC50 | inactive
CC(=O)N[C@@H](CC(C)C)C(=O)N[C@@H](CCC(=O)O)C(=O)N[C@H](C(=O)N[C@@H](CC(=O)O)C(=O)COC(=O)c1c(C)cccc1C)[C@@H](C)O | CASP6 | enzyme activity, inhibitor |  |  |  | kinact/KI | 180000 M⁻¹ s⁻¹
Nc1ncc(-c2cc(-c3cnn(CC(F)(F)F)c3)ncc2F)nc1C(=O)NC1CNCC(F)C1 (stereo not shown) | WNK1 | KINOMEscan |  | 1 µM | baseline: DMSO control | remaining binding | 70%
CCCCc1nc(C=NOCc2ccc(-c3nc4cc(-c5ccccc5)ccn4c3Nc3ccc(C(=O)O)cc3)cc2)c[nH]1 (mixture of isomers) | TDP1 | enzyme activity, inhibitor |  | 100 µM, unpurified compound |  | inhibition | 57.1%
CC(=O)N[C@@H](CC(=O)O)C(=O)N[C@@H](CC(C)C)C(=O)N[C@@H](C)C(=O)N[C@@H](CC(=O)O)C(=O)COC(=O)c1c(C)cccc1C | CASP6 | enzyme activity, inhibitor |  |  |  | kinact/KI | 1400 M⁻¹ s⁻¹
COC(=O)c1cccc(C=NOCc2ccc3nc(-c4ccccc4)c(Nc4ccc(C(=O)O)cc4)n3c2)c1O (mixture of isomers) | TDP1 | enzyme activity, inhibitor |  | 100 µM, unpurified compound |  | inhibition | 70.5%
Cc1ncsc1-c1ccc(C(C)NC(=O)C2CC(O)CN2C(=O)C(NC(=O)CCCCCCCCCCN2CCCC(Nc3ncc(Cl)c(Nc4ccccc4S(=O)(=O)C(C)C)n3)C2)C(C)(C)C)cc1 (stereo not shown) | 22Rv1 | RNA-seq, refers to: ZNF585B mRNA |  | concentration not given | baseline: DMSO | log2 fold change | -1.67
CCCCCCCCCCCCCCCC(=O)OCC(CSC[C@H](N)C(=O)N[C@@H](CO)C(=O)N[C@@H](CCCCN)C(=O)N[C@@H](CCCCN)C(=O)N[C@@H](CCCCN)C(=O)N[C@@H](CCCCN)C(=O)NCCCCCC(=O)N[C@@H](CCCCN)C(=O)N[C@@H](CC(C)C)C(=O)N[C@H](C(=O)N[C@@H](Cc1ccccc1)C(=O)N[C@@H](Cc1ccccc1)C(=O)N[C@@H](Cc1ccc2ccccc2c1)C(=O)O)C(C)C)OC(=O)CCCCCCCCCCCCCCC (stereo partly shown) | Amyloid-beta precursor protein, fibrillar amyloid-beta (APP, Homo sapiens, UniProt P05067) | TEM |  | 2.0 eq, 5 h, fibril 5, together with: APP 20 µM |  | fibril diameter | 55.8 nm
CN(C(=O)[C@@H]1CSCC(=O)N[C@@H](Cc2ccccc2)C(=O)N[C@@H](CO)C(=O)N[C@@H](Cc2ccccc2)C(=O)N[C@@H](Cc2ccc(O)cc2)C(=O)N[C@@H](Cc2ccc(O)cc2)C(=O)N[C@@H](Cc2c[nH]cn2)C(=O)N[C@@H](Cc2c[nH]c3ccccc23)C(=O)N1)[C@@H](Cc1ccccc1)C(N)=O | BRD4 BD1 | thermal stability, DSF |  | 100 µM |  | ΔTm | -0.51 °C
O=C(O)c1ccc(Nc2c(-c3ccc(CON=Cc4ccc(OCC(=O)N5CCNC5=O)cc4)cc3)nc3cc(-c4ccccc4)ccn23)cc1 | TDP1 | enzyme activity, inhibitor |  | 100 µM |  | inhibition | 100%
CC(=O)N[C@@H](CC(C)C)C(=O)N[C@@H](CCC(=O)O)C(=O)N[C@@H](COCc1ccccc1)C(=O)N[C@@H](CC(=O)O)C(=O)COC(=O)c1c(C)cccc1C | CASP6 | enzyme activity, inhibitor |  |  |  | kinact/KI | 351000 M⁻¹ s⁻¹
O=C(O)c1ccc(Nc2c(-c3ccccc3)nc3ccc(CON=Cc4ccc(-c5cccs5)nc4)cn23)cc1 | TDP1 | enzyme activity, inhibitor |  | 100 µM, unpurified compound |  | inhibition | -9.4%
CC[C@H](NC(=O)[C@H](CC(C)C)NC(C)=O)C(=O)N[C@@H](CCC1CCCCC1)C(=O)N[C@@H](CC(=O)O)C(=O)COC(=O)c1c(C)cccc1C | CASP6 | enzyme activity, inhibitor |  |  |  | kinact/KI | 123000 M⁻¹ s⁻¹
Cn1cc(-c2cc(N3CCCCS3(=O)=O)ccc2N[C@H]2CC[C@H](C)CC2)c2cc[nH]c2c1=O (stereo in doubt) | Bromodomain-containing protein 1, bromodomain (BRD1, Homo sapiens, UniProt O95696) | binding, competition with immobilised ligand |  | 1 µM |  | remaining binding | 95%
CC[C@H](C)[C@H](NC(C)=O)C(=O)N[C@@H](CCC(=O)O)C(=O)N[C@H](C(=O)N[C@@H](CC(=O)O)C(=O)COC(=O)c1c(C)cccc1C)[C@@H](C)O | CASP6 | enzyme activity, inhibitor |  |  |  | kinact/KI | 642000 M⁻¹ s⁻¹
CC(C)c1ccc(/C=C/C(=O)c2nc3ccccc3[nH]2)cc1 | MAOB (Homo sapiens, UniProt P27338) | enzyme activity, inhibitor |  | together with: benzylamine | baseline: IC50 MAO-A over IC50 MAO-B | selectivity ratio | 2.64

Repeated from above:
SMILES | tested on | test | test system | setting | scale | measurement | value
O=C1CCCN1c1cccc(NS(=O)(=O)c2cc(Br)ccc2Br)c1 | BRD4 BD1 | thermal stability, DSF |  |  |  | ΔTm | -0.91 °C
CCCCCCCO[C@H]1O[C@H](CO)[C@@H](O)[C@H](O)[C@@H]1O | Type 1 fimbrin D-mannose specific adhesin, lectin domain (fimH, Escherichia coli K-12, UniProt P08191) | binding, isothermal titration calorimetry |  | 37 °C, individual direct titrations |  | -TΔS | 17.4 kJ/mol and 16.1 kJ/mol
CC[C@@H](C)[C@H](NC(=O)[C@H](Cc1ccc(O)cc1)NC(=O)[C@@H]1C[C@@H](O)CN1C(=O)[C@H](C)NC(=O)[C@H](CC(C)C)NC(=O)[C@H](C)NC(=O)[C@H](CCC(=O)O)NC(=O)[C@H](CC(=O)O)NC(=O)c1ccc2c(c1)C1(OC2=O)c2ccc(O)cc2Oc2cc(O)ccc21)C(=O)N1CCC[C@H]1C(=O)N[C@@H](CC(=O)O)C(=O)O | elongin C (Spodoptera frugiperda, UniProt A0A2H1WSX9) | surface plasmon resonance |  | binary complex |  | koff | 0.0034 s⁻¹
CN(C)S(=O)(=O)c1ccc(S(=O)(=O)N2CCC(n3c(=O)[nH]c4ccccc43)CC2)cc1 | DNA excision repair protein ERCC-6 (ERCC6, Homo sapiens, UniProt Q03468) |  |  | concentration not given |  | ATPase activity | 96.8%
